Measurements from different studies.
Protocols differ between the studies behind these lines. Several values in a cell are separate wells, animals, samples, runs or records. ± marks the error that the study gave. In brackets after ≈: the same amount, converted by molar mass.

For `CCCCCCCC(=O)NCCCC[C@H](NC(=O)CCCCCCC)C(=O)N[C@@H](CCCCNC(=O)CCCCCCC)C(=O)NCC(=O)NCC(=O)NCC(=O)N[C@@H](CS)C(=O)N[C@@H](CCCNC(=N)N)C(=O)N[C@@H](CCCCN)C(=O)N1CCC[C@H]1C(=O)N[C@@H](CS)C(=O)N[C@@H](CCCNC(=N)N)C(=O)N[C@@H](CCCCN)C(=O)N1CCC[C@H]1C(=O)N[C@@H](CS)C(=O)N[C@@H](CCCNC(=N)N)C(=O)N[C@@H](CCCCN)C(=O)N1CCC[C@H]1C(N)=O`, the MIC was 16 µM (≈ 36.4 µg/mL) (Candida albicans; broth microdilution; SP 3876, RPMI-1640; 48 h, 30 °C).
`O=C1NC2(CC2)COc2ncc(F)cc2[C@H]2COCCN2c2ccn3ncc1c3n2` — result for “organ-to-body weight ratio”: 0.218 ± 0.035% (Sprague-Dawley rat, male, spleen; oral, 10 mg/kg/day, 4 weeks dosing, end of recovery).
With `O=C1C(O)=C([C@H]2CC[C@H](c3ccc(Cl)cc3)CC2)C(=O)c2ccccc21` the EC50 was 1.3 ± 0.2 nM (Plasmodium falciparum; parasite growth; Dd2-NITD609).
The mortality of `CN(C)c1nc(NCc2ccc(F)c(C(F)(F)F)c2)c(/N=N/c2ccc(Cl)cc2)c(N(C)C)n1` is reported as 46.7 ± 5.8% (Plutella xylostella; leaf dipping; 200 mg/L, 96 h).
`[O-][N+]1=C(c2ccc(Cl)cc2)C2=NCCCN2c2ccccc21` gave an MIC90 of 1 µg/mL (≈ 3.21 µM) (Fusobacterium nucleatum).
Under “MIC fold change”, `CC[C@H](C)CCCCC(=O)N[C@@H](CCN)C(=O)N[C@H](C(=O)N[C@@H](CCN)C(=O)N[C@H]1CCNC(=O)[C@H]([C@@H](C)O)NC(=O)[C@H](CCN)NC(=O)[C@H](CCN)NC(=O)[C@H](CC(C)C)NC(=O)[C@@H](CC(C)C)NC(=O)[C@H](CCN)NC1=O)[C@@H](C)O` is recorded as 0.789 (Escherichia coli; daily serial passaging; ATCC 8739; highest sub-MIC, 36 days; relative to: initial MIC).
For `CC[C@H](C)[C@H](NC(=O)[C@H](CCCCN)NC(=O)[C@H](CCCCN)NC(=O)[C@H](Cc1ccccc1)NC(=O)[C@H](Cc1ccccc1)NC(=O)[C@H](CCCCN)NC(=O)[C@H](CCCCN)NC(=O)[C@H](Cc1ccccc1)NC(=O)[C@H](CCCNC(=N)N)NC(=O)[C@@H](N)CCCCN)C(=O)N[C@@H](CCCCN)C(=O)N[C@@H](CCCCN)C(=O)N[C@@H](CO)C(=O)N[C@H](C(=O)N[C@@H](CCCCN)C(=O)N[C@@H](CCCCN)C(=O)N[C@@H](CCCNC(=N)N)C(=O)N[C@H](C(=O)N[C@@H](CCCCN)C(=O)N[C@@H](CCCCN)C(=O)N[C@@H](CC(C)C)C(=O)N[C@@H](Cc1ccccc1)C(=O)N[C@@H](CCCCN)C(=O)N[C@@H](CCCCN)C(=O)N1CCC[C@H]1C(=O)N[C@@H](CCCNC(=N)N)C(=O)N[C@H](C(=O)N[C@H](C(=O)N1CCC[C@H]1C(=O)N[C@H](C(=O)N[C@@H](CO)C(=O)N[C@H](C(=O)N1CCC[C@H]1C(=O)N[C@@H](Cc1ccccc1)C(=O)O)[C@@H](C)CC)[C@@H](C)CC)[C@@H](C)CC)C(C)C)C(C)C)C(C)C`, the MBC was 8 µg/mL (≈ 1.9 µM) (Klebsiella pneumoniae; K1 clinical isolate; 20 h).
The MIC50 of `O=[N+]([O-])c1ccc(C2=[N+]([O-])c3ccccc3N3CCCN=C23)cc1` is reported as ≤ 0.06 µg/mL (Fusobacterium nucleatum; microbial growth).
The inhibition of `CCOC(=O)C1(Cc2ccc(C(F)(F)F)cc2)Oc2cc(F)ccc2N(Cc2ccc(C(F)(F)F)cc2)C1=O` (centres unmarked) is reported as 22.1% (Arabidopsis thaliana; stem length, petri dish germination; Col-0, 1/2 MS medium; 50 µg/mL, 7 days, 22 °C, dark).
Under “lung bacterial load”, `CN(C)S(=O)(=O)c1ccc(S(=O)(=O)N2CCC(n3c(=O)[nH]c4ccccc43)CC2)cc1` is recorded as 5.73 log10 CFU/g and 5.85 log10 CFU/g and 5.19 log10 CFU/g and 5.38 log10 CFU/g (Klebsiella pneumoniae; ∆mfd, mouse, intranasal infection, lung; intraperitoneal, 6 mg/kg, 24 h, nanoformulation).
`CCOC(=O)C1(Cc2cc(F)cc(F)c2)Oc2cc(F)ccc2N(Cc2cc(F)cc(F)c2)C1=O` (centres unmarked) gave an inhibition of 27.3% (Arabidopsis thaliana; stem length, petri dish germination; Col-0, 1/2 MS medium; 50 µg/mL, 7 days, 22 °C, dark).
`CC(=O)c1c(O)c(C)c(O)c2c1OC1=CC(=O)C(=C(C)NCCCC(=O)OC3OC4OC5(C)CCC6C(C)CCC(C3C)C46OO5)C(=O)C12C` (centres unmarked) — result for “mean survival time”: 29.3 days (Plasmodium berghei; ANKA GFP, NMRI mouse; oral, 4 x 100 mg/kg).
The IC50 of `[2H]C([2H])(c1cc(F)c(F)cc1F)n1c(=O)n(Cc2ncn(C)n2)c(=O)[nH]/c1=N\c1cc2cn(C)nc2cc1Cl` is reported as 47.7 µM (transmissible gastroenteritis virus; viral replication, qRT-PCR; ST; 48 h).
`COc1ccc(Nc2ncnc3ccc(-c4ccc(S(=O)(=O)N5CCN(C)CC5)cc4)cc23)cc1Cl` gave an EC50 of 210 nM (Plasmodium falciparum; parasite growth, SYBR Green fluorescence; W2, drug-resistant).
For `Cc1cc(C(=O)Nc2nc3cccc(C)c3n2[C@H]2CCCCN(C(=O)/C=C/CN(C)C)C2)ccn1`, the parasite density was 1e+06 parasites/mL and 900000 parasites/mL and 800000 parasites/mL (Trypanosoma brucei; 2T1 CLK1 over-expression uninduced; concentration not given).
`Cc1ccc(N2CC3CC(C2)N3C)cc1C(=O)NC1(c2ccc3c4c(cccc24)C(=O)N3C)CC1` gave an inhibition of 0% (Betacoronavirus 1; viral replication; Huh-7, OC43; 0.1875 µM).
`CN1CCN(S(=O)(=O)c2ccc(-c3ccc4ncnc(Nc5ccc(F)cc5)c4c3)cc2)CC1` has an EC50 of 780 nM (Plasmodium falciparum; parasite growth, SYBR Green fluorescence; W2, drug-resistant).
With `CCOC(=O)C1(Cc2ccc(C)cc2)Oc2cc(F)ccc2N(Cc2ccc(C)cc2)C1=O` (centres unmarked) the inhibition was 38.1% (Arabidopsis thaliana; stem length, petri dish germination; Col-0, 1/2 MS medium; 50 µg/mL, 7 days, 22 °C, dark).
The herbicidal inhibition of `NCCCO.O=C(O)C(Cl)Cl` is reported as 0% (Xanthium sibiricum; 15 mg/mL, 21 days, pre-emergence, greenhouse).
Under “mRNA fold change”, `FC(F)(F)c1cccc(CNc2nc(NC3CCN(Cc4ccccc4)CC3)c3nc[nH]c3n2)c1` is recorded as 1.49 (Cryptococcus neoformans; RNA-seq, refers to: PLC1 (CNAG_02867); 48 µg/mL, 3 h; relative to: untreated).
For `COc1ccc(Cn2c3cc(=O)n(Cc4cccc(Cl)n4)c(C)c3c(=O)n2-c2ccccn2)cc1`, “normalized viral replication” read 0 (human respiratory syncytial virus; recombinant reporter virus; concentration not given, scale 0 to 100, together with: cytidine 1.2 µM).
`CCOC(=O)C1(Cc2ccccc2)Oc2cc(F)ccc2N(Cc2ccccc2)C1=O` (centres unmarked) — result for “stem length inhibition”: 34.6% (Arabidopsis thaliana; Col-0, seed germination, dark; 50 µg/mL, 7 days, 22 °C).
For `Fc1cccc(COc2ccc(Nc3ncnc4ccc(-c5ccccc5)cc34)cc2Cl)c1`, the EC50 was 1160 nM (Plasmodium falciparum; parasite growth, SYBR Green fluorescence; C235 (TM91C235), drug-resistant).
Under “faecal Nluc luminescence”, `CN(C(=O)c1ccn2ncc(-c3ccc(C(N)=O)cc3)c2c1)c1ccc(C#N)cn1` is recorded as 39100 a.u. and 97800 a.u. and 151000 a.u. and 45400 a.u. (Cryptosporidium parvum; UGA1 Nluc, IFN-gamma knockout C57BL/6 mice, faeces; oral, 10 mg/kg daily, 240 h post infection, treatment days 11-17; higher means more parasites).
`CCOC(=O)C1(Cc2ccccc2F)Oc2cc(F)ccc2N(Cc2ccccc2F)C1=O` (centres unmarked) has an inhibition of 74.8% (Arabidopsis thaliana; root length, petri dish germination; Col-0, 1/2 MS medium; 200 µg/mL, 7 days, 22 °C, dark).
Under “mean survival time”, `CC(=O)c1c(O)c(C)c(O)c2c1OC1=CC(=O)C(=C(C)NCCCCOC3OC4OC5(C)CCC6C(C)CCC(C3C)C46OO5)C(=O)C12C` (mixture of isomers) is recorded as 17 days (Plasmodium berghei; ANKA GFP, NMRI mouse; oral, 4 x 30 mg/kg).
For `CCOC(=O)C1(Cc2cc(OC)cc(OC)c2)Oc2cc(F)ccc2N(Cc2cc(OC)cc(OC)c2)C1=O` (centres unmarked), the inhibition was 55.3% (Arabidopsis thaliana; root length, petri dish germination; Col-0, 1/2 MS medium; 200 µg/mL, 7 days, 22 °C, dark).
The inhibition of `C[C@H](NC(=O)[C@@H](O)c1cc(F)cc(F)c1)C(=O)N[C@@H]1C(=O)N(C)c2ccccc2-c2ccccc21` is reported as 6.6% (dengue virus 2; viral infection, luciferase reporter virus; 0.1 nM, 48 h).
The EC50 of `Fc1cccc(COc2ccc(Nc3ncnc4ccc(-c5ccc(N6CCNCC6)cc5)cc34)cc2Cl)c1` is reported as 630 nM (Plasmodium falciparum; parasite growth, SYBR Green fluorescence; W2, drug-resistant).
The IC50 of `CC[C@H](C)[C@H](NC(=O)[C@@H]1CCCN1C(=O)CNC(=O)[C@H](CC(N)=O)NC(=O)CNC(=O)[C@H](CC(=O)O)NC(=O)[C@@H]1CCC(=O)O[C@H](C)[C@H](NC(=O)[C@@H](NC(=O)[C@H](Cc2ccccc2)NC(=O)[C@@H](NC(=O)[C@H](CCCCN)NC(=O)CNC(=O)[C@H](CC(=O)O)NC(=O)CNC(=O)[C@@H](NC(=O)CNC(=O)[C@H](CC(=O)O)NC(=O)[C@@H]2CCC(=O)O[C@H](C)[C@H](NC(=O)[C@@H](NC(=O)[C@H](CC(C)C)NC(=O)[C@H](CCCCN)NC(=O)[C@H](Cc3ccccc3)NC(=O)[C@H](CC(=O)O)NC(=O)CNC(=O)[C@H](CCCCN)NC(=O)[C@H](CC(C)C)NC(=O)[C@H](CO)NC(=O)CN)C(C)C)C(=O)N[C@@H](CCSC)C(=O)N[C@@H](CCCCN)C(=O)N[C@@H](C(C)C)C(=O)N3CCC[C@H]3C(=O)N2)C(C)C)C(C)C)[C@@H](C)O)C(=O)N[C@@H](C)C(=O)N[C@@H](CC(C)C)C(=O)NCC(=O)N1)C(=O)N[C@@H](Cc1ccc(O)cc1)C(=O)N[C@@H]1C(=O)N[C@@H]2C(=O)N[C@@H](CCC(N)=O)C(=O)N[C@@H](C)C(=O)N[C@@H](C(C)C)C(=O)NCC(=O)N[C@@H](CCC(=O)O[C@@H]2C)C(=O)N[C@H](C(=O)NCC(=O)NCC(=O)N[C@@H](CC(=O)O)C(=O)N[C@@H](CC(C)C)C(=O)N2CCC[C@H]2C(=O)N2CCC[C@H]2C(=O)N[C@@H](CC(C)C)C(=O)N[C@@H](Cc2ccccc2)C(=O)O)CCC(=O)O[C@@H]1C` is reported as > 100 µM (herpes simplex virus; viral replication).
`Fc1cccc(COc2ccc(Nc3ncnc4ccc(-c5ccc(CN6CCOCC6)cc5)cc34)cc2Cl)c1` has an EC50 of 85 nM (Plasmodium falciparum; parasite growth, SYBR Green fluorescence; C235 (TM91C235), drug-resistant).
The biofilm eradication of `CC(C)C[C@H](NC(=O)[C@H](CC(C)C)NC(=O)[C@H](CCCCN)NC(=O)[C@H](Cc1ccccc1)NC(=O)[C@@H](NC(=O)[C@H](CCCNC(=N)N)NC(=O)[C@@H](N)CCCCN)C(C)C)C(=O)N[C@@H](CCCCN)C(=O)N[C@@H](CCCNC(=N)N)C(=O)N[C@@H](Cc1ccc(O)cc1)C(=O)N[C@@H](Cc1c[nH]c2ccccc12)C(=O)N[C@@H](CCCNC(=N)N)C(=O)N[C@@H](CCC(N)=O)C(=O)N[C@@H](CC(C)C)C(=O)N[C@@H](CCCCN)C(=O)N[C@@H](CCCCN)C(=O)N1CCC[C@H]1C(=O)N[C@H](C(=O)N[C@@H](CCCNC(=N)N)C(=O)NCCOCCOCC(=O)O)C(C)C` is reported as > 60% (Pseudomonas aeruginosa and Staphylococcus aureus; crystal violet; polymicrobial biofilm; 8 µM, 24 h, 24 h mature biofilm).
